# Assay results from different studies.
# Each line is one published result; not all experiments were run side by side. Several values in a cell are separate wells, animals, samples, runs or records. Numbers after ± are the reported error.
# Sequence of UniProt P27361 (whole entry, looked up): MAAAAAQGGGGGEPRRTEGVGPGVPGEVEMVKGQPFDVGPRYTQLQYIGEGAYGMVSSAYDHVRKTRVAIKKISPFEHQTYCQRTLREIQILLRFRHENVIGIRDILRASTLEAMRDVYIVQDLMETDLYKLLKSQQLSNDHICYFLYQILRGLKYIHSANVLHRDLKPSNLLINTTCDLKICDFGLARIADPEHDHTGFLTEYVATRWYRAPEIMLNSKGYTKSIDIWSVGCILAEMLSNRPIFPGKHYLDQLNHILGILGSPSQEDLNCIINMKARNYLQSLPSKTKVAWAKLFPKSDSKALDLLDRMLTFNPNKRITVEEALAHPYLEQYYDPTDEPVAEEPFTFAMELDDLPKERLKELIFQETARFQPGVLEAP
# Sequence of UniProt P68402 (whole entry, looked up): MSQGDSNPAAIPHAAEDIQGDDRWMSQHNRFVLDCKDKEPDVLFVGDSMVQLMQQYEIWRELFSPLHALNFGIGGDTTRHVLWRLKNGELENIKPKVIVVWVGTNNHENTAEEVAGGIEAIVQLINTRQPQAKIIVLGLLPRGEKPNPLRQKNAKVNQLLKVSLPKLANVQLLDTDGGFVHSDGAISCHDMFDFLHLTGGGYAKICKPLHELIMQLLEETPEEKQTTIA
# Sequence of UniProt P35499 (whole entry, looked up): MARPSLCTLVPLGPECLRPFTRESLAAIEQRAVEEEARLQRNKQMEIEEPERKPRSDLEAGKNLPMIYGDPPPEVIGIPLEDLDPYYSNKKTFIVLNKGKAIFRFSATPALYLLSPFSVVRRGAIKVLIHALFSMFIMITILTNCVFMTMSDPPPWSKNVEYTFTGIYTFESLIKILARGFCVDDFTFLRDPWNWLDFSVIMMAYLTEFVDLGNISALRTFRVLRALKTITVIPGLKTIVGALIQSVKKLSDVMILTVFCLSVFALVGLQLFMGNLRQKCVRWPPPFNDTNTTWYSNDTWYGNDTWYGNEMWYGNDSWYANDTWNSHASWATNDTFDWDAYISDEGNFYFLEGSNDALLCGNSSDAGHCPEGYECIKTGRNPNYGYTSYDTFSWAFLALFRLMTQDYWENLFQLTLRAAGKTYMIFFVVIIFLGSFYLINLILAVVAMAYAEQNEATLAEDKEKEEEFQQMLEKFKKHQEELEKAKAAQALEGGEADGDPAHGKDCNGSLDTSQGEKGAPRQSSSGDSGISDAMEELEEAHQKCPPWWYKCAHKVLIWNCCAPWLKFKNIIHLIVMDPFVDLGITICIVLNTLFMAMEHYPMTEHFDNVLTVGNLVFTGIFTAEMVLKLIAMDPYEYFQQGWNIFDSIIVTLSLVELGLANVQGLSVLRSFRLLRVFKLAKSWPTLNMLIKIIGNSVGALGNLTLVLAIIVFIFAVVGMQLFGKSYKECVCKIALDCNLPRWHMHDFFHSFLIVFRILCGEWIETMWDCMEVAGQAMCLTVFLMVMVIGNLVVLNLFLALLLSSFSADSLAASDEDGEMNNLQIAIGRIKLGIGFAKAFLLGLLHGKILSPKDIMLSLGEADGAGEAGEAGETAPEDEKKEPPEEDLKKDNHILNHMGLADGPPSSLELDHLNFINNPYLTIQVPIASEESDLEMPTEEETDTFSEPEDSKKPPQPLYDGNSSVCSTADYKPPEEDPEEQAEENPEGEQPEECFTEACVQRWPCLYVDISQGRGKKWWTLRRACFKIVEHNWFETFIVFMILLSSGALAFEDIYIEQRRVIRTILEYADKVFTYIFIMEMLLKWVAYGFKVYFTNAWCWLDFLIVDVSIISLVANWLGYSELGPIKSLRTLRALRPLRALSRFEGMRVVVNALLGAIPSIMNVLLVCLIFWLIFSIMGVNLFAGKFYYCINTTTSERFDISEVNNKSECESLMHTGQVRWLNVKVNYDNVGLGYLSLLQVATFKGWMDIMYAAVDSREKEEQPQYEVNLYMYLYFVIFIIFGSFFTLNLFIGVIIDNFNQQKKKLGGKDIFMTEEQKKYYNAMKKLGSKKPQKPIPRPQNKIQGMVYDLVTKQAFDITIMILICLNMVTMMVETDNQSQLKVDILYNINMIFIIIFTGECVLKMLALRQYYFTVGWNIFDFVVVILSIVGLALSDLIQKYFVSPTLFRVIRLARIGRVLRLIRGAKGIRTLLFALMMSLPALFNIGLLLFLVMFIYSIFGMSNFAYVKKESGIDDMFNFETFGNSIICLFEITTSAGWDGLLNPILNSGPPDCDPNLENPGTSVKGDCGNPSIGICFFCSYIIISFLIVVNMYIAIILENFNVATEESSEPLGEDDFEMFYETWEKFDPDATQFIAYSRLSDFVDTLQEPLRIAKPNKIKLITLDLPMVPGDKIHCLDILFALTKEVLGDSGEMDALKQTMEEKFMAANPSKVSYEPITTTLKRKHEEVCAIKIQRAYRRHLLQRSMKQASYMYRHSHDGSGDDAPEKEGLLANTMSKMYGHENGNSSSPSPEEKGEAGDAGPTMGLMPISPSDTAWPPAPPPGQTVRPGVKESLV
# Sequence of UniProt P62136 (whole entry, unmodified, looked up): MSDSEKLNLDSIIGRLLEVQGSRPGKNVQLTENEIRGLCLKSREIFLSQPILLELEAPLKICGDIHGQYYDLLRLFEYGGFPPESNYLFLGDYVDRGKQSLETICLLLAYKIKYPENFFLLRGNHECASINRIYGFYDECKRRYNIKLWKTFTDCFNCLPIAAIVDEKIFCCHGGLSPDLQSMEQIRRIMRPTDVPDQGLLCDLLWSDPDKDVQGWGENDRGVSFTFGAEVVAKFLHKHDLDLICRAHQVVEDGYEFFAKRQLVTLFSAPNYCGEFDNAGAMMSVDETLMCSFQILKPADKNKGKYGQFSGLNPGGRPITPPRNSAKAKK
# Sequence of UniProt Q14994 (whole entry, looked up): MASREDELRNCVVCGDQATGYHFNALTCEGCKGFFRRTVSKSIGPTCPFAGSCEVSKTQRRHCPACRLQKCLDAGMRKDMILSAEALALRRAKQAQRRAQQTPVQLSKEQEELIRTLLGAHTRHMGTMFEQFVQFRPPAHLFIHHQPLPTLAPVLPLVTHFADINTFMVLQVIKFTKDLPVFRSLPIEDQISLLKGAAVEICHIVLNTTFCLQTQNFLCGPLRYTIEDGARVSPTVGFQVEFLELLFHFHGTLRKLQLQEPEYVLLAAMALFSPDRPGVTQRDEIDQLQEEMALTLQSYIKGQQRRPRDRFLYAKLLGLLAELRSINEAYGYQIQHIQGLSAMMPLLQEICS
# Sequence of UniProt O42275 (whole entry, looked up): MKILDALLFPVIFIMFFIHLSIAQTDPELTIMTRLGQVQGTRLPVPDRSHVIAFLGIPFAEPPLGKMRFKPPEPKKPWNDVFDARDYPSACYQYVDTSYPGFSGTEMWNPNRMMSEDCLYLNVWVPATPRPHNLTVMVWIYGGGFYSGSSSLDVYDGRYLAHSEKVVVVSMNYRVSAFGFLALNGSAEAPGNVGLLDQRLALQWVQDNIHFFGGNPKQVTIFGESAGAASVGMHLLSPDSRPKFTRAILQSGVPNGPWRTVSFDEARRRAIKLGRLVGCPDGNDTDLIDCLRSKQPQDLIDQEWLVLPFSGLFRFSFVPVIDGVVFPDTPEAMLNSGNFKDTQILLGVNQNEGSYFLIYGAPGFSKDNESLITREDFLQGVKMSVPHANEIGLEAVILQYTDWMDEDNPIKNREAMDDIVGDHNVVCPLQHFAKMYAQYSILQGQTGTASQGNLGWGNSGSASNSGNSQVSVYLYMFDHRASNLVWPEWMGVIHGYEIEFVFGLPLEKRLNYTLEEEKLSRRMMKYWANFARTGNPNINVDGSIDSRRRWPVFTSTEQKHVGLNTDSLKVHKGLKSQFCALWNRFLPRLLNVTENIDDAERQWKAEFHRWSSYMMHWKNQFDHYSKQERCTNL
# Sequence of UniProt P51170 (whole entry, looked up): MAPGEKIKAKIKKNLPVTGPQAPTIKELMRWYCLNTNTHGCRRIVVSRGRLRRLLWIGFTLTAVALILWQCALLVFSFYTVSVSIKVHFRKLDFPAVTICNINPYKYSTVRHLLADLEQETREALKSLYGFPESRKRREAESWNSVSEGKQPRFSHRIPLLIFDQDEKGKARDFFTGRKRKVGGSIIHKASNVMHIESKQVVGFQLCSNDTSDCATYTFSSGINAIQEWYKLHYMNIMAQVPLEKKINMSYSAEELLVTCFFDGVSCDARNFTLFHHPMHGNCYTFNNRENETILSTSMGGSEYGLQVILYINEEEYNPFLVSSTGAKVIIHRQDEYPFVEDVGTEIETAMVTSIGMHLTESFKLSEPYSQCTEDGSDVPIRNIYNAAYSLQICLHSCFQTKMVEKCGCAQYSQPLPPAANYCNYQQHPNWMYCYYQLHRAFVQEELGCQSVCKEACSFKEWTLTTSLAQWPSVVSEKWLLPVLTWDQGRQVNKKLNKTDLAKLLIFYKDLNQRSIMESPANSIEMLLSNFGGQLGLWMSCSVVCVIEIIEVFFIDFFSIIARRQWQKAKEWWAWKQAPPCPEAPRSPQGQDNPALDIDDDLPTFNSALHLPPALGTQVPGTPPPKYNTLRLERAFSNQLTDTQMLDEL
# Sequence of UniProt P20782 (whole entry, looked up): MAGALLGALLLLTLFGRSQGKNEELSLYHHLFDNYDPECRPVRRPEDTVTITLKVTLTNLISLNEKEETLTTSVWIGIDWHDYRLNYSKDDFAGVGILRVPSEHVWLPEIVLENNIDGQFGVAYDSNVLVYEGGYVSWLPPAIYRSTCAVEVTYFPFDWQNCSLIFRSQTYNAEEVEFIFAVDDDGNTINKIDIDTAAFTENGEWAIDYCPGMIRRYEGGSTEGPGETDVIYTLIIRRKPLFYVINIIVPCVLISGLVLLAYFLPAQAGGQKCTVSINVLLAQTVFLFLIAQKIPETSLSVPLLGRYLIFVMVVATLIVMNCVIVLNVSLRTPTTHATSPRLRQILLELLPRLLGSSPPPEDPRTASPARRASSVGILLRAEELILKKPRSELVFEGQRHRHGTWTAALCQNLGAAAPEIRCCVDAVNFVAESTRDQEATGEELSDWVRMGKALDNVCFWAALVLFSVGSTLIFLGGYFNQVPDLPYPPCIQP
SMILES,target,test,system,setting,scale,measurement,result
CCCCCCCCCCCCCC[N+](C)(C)C,"Sodium channel protein type 4 alpha, BTX-activated (Oryctolagus cuniculus, UniProt G1SLL9)",,,concentration not given,,k-1,12.5 s⁻¹
CN1CCN(c2cc(-c3ccncc3)c(-c3ccc4ccccc4c3)nn2)CC1,"Adenosine receptor A3 (ADORA3, Homo sapiens, UniProt P0DMS8)","antagonist, FLIPR",,10 µM,,inhibition,12.1%
CC(C)C[C@H](NC(=O)[C@H](Cc1ccccc1)NC(=O)[C@@H]1CCCN1C(=O)[C@H](CCCNC(=N)N)NC(=O)[C@H](CCC(=O)O)NC(=O)[C@@H]1CCCN1C(=O)[C@H](CO)NC(=O)[C@@H](N)CCC(=O)O)C(=O)O,"Epithelial sodium channel subunit gamma (Homo sapiens, UniProt P51170)","binding, bio-layer interferometry",,,,kon,1170 M⁻¹ s⁻¹
O=C(c1ccc(Cl)cc1)N1CCN2C(=O)N(OC(=O)N3CCOc4ccccc43)C(=O)C2C1 (centres unmarked),"Platelet-activating factor acetylhydrolase IB subunit alpha2 (Homo sapiens, UniProt P68402)",MS-based ABPP,SW-620 conditioned medium,"10 µM, 1 h, 37 °C","relative to: compound over DMSO, lower = more inhibition",peptide ratio,1.06 and 0.91 and 0.89 and 0.94
COc1cc(Nc2ncc(F)c(Nc3ccc4c(n3)NC(=O)C(C)(C)O4)n2)cc(OC)c1OC,"Vascular endothelial growth factor receptor 1 (FLT1, Homo sapiens, UniProt P17948)",KINOMEscan,,10 µM,,inhibition,100%
N[C@@H](Cc1ccc(O)c(F)c1)C(=O)O,"Iodotyrosine deiodinase (Haliscomenobacter hydrossis, UniProt F4KU78)","binding, fluorescence",,,"relative to: iodotyrosine over compound, higher = weaker than iodotyrosine",affinity ratio,8 fold
CC(=C\C=C\C(C)=C\[C@H](O)[C@@H](O)C[C@H](C)O)/C=C(C)/C=C/C(=O)O[C@H]1CCCC(=O)O[C@@H]([C@@H](C)C/C(C)=C/[C@@H](C)[C@H](O)C[C@@H](C)O)C/C=C(\C)C[C@@H]1C,"Protein transport protein Sec61 subunit alpha isoform 1 (Homo sapiens, UniProt P61619)","Sec61-dependent translocation, inhibitor, measured: CD4 signal peptide-FLuc reporter",HEK293,"concentration not given, 6 h",relative to: mock,FLuc/RLuc ratio,1.97
Cc1ccc(C(=O)Nc2ccnc(S(N)(=O)=O)c2)c(N2CCCC(F)(F)CC2)n1,"Sodium channel protein type 4 subunit alpha (SCN4A, Homo sapiens, UniProt P35499)",automated patch clamp,,,relative to: IC50 Nav1.4 over IC50 Nav1.8,selectivity ratio,~2000 fold and 1780 fold
CO[C@H]1C[C@H](O[C@@H]2/C(C)=C/C[C@@H]3C[C@@H](C[C@]4(CC[C@H](C)[C@@H](C5CCCCC5)O4)O3)OC(=O)[C@@H]3C=C(C)/C(=N/O)[C@H]4OC/C(=C\C=C\[C@@H]2C)[C@]43O)O[C@@H](C)[C@@H]1O,"Nuclear receptor subfamily 1 group I member 3 (Homo sapiens, UniProt Q14994)",,cells,concentration not given,,activity,inactive
O=C(Nc1cnccc1Cl)N1CCN(Cc2ccc3c(c2)OC(F)(F)O3)CC1,"Cholecystokinin receptor type A (CCKAR, Homo sapiens, UniProt P32238)",binding,,"50 µM, with: [3H]L-364,718",,inhibition,-13%
O=C(NO)[C@H]1COC(c2c[nH]c3ccc(F)cc23)=N1,"UDP-3-O-acyl-N-acetylglucosamine deacetylase (Pseudomonas aeruginosa, UniProt P47205, C40S)",ITC,,"concentration not given, 298 K",,ΔS of binding,0.109 kJ/(mol·K)
O=C(O)COP(=O)(O)O,"TPI1 (Saccharomyces cerevisiae, UniProt P00942, Y208T)","enzyme activity, competitive inhibitor, GPDH/NADH-coupled",,"pH 8.9, 25 °C, ionic strength 0.1 NaCl, with: glyceraldehyde 3-phosphate substrate",relative to: mutant over wild type,Ki ratio,8.6
C[C@H]1CN(c2n[nH]c3nc(N[C@H]4CC[C@H](NS(=O)(=O)CCC(F)(F)F)CC4)ncc23)CCO1,"Sodium/potassium-transporting ATPase subunit alpha-1 (ATP1A1, Homo sapiens, UniProt P05023)","inhibitor, Kinobeads competition profiling",,0.16 µM,relative to: vehicle,relative abundance,1.14
[2H]c1c([2H])c([C@]2([2H])CCCN2C(=O)C(C)(C)Oc2ccc3cn[nH]c3c2)c([2H])c([2H])c1C([2H])([2H])[2H],"Myosin light chain kinase (MYLK3, Homo sapiens, UniProt Q32MK0)",KINOMEscan,,1 µM,relative to: DMSO control,remaining binding,98%
O=C(O)c1cccc(C(=O)O)n1,"Metallo-beta-lactamase type 2 (blaNDM-1, Klebsiella pneumoniae, UniProt C7C422)","enzyme activity, inhibitor",,with: nitrocefin,,kon,1330 ± 333 M⁻¹ s⁻¹
c1ccc2c(c1)cc1ccc3cccc4ccc2c1c34,"Aryl hydrocarbon receptor (Ahr, Rattus norvegicus, UniProt P41738)","agonist, CALUX reporter",H4IIE,0.0038 µg/mL,,agonist response,61.7%
CC(C)[C@@H]1NC(=O)[C@H](C)OC(=O)[C@@H](C(C)C)NC(=O)[C@@H](C(C)C)OC(=O)[C@H](C(C)C)NC(=O)[C@H](C)OC(=O)[C@@H](C(C)C)NC(=O)[C@@H](C(C)C)OC(=O)[C@H](C(C)C)NC(=O)[C@H](C)OC(=O)[C@@H](C(C)C)NC(=O)[C@@H](C(C)C)OC1=O,"Metalloendopeptidase OMA1, mitochondrial (OMA1, Homo sapiens, UniProt Q96E52)","Western blot, measured: L-OPA1","HEK293T, control siRNA",concentration not given,,protein level,18.6 ± 3.4%
CN(C(=O)n1cnc(-c2ccc[n+]([O-])c2)c1)C1CCCCC1,"Prostaglandin E2 receptor EP1 subtype (PTGER1, Homo sapiens, UniProt P34995)","binding, measured: EP1",,"50 µM, human, with: [3H]prostaglandin E2",,inhibition,12%
CC[C@H](C)[C@H](NC(=O)CNC(=O)[C@@H](N)CCCCN)C(=O)N[C@@H](CC(C)C)C(=O)N[C@@H](CCCCN)C(=O)N[C@@H](CCCNC(=N)N)C(=O)N[C@@H](CCC(=O)O)C(=O)N[C@@H](CCCCN)C(=O)N[C@@H](CCCNC(=N)N)C(=O)N[C@@H](CC(C)C)C(=O)N[C@@H](CCCNC(=N)N)C(=O)N[C@@H](CCCNC(=N)N)C(=O)N[C@@H](CCCCN)C(=O)N[C@@H](CC(N)=O)C(=O)N[C@H](C(=O)N[C@@H](Cc1c[nH]cn1)C(=O)N[C@@H](Cc1c[nH]c2ccccc12)C(=O)N1CCC[C@H]1C(=O)N[C@@H](CCC(=O)O)C(=O)N[C@@H](CCC(=O)O)C(=O)NCC(=O)N[C@@H](CCCCN)C(=O)N[C@@H](CC(C)C)C(=O)N[C@@H](CCCNC(=N)N)C(=O)N[C@@H](CCC(=O)O)C(=O)N[C@@H](Cc1ccc(O)cc1)C(=O)N[C@@H](Cc1ccccc1)C(=O)N[C@@H](Cc1ccc(O)cc1)C(=O)N[C@@H](Cc1ccccc1)C(=O)N[C@@H](CCC(=O)O)C(=O)N[C@@H](CC(C)C)C(=O)N[C@@H](CC(=O)O)C(=O)N[C@@H](CCC(=O)O)C(=O)N[C@@H](C)C(=O)N[C@@H](CCC(=O)O)C(=O)N[C@@H](CCCNC(=N)N)C(=O)N[C@H](C(=O)N[C@@H](CC(N)=O)C(=O)N[C@H](C(=O)O)C(C)C)C(C)C)C(C)C,"Serine/threonine-protein phosphatase PP1-alpha catalytic subunit (PPP1CA, Homo sapiens, UniProt P62136)","binding, isothermal titration calorimetry",,"25 °C, PP1α residues 7-330",,entropic term −TΔS,-11 ± 1.8 kcal/mol
CCOC(=O)COc1ccc2c(=O)c3ccccc3oc2c1,"Acetylcholinesterase (ache, Electrophorus electricus, UniProt O42275)",enzyme activity,,"0.84 µM, with: substrate 0.43 mM",higher = faster reaction,reaction velocity,0.0007 a.u.
c1cncc([C@@H]2CCCCN2)c1,"Chrnd/Chrna1/Chrne (Mus musculus, UniProt P02716+P04756+P20782)",single-channel kinetics,,wild-type receptor,,resting-state kon,3.19e+07 M⁻¹ s⁻¹
Cc1cc(N2CCNCC2)nc2ccccc12,"Muscarinic acetylcholine receptor M1 (CHRM1, Homo sapiens, UniProt P11229)","ERK1/2 phosphorylation, agonist",CHO cells,,,Emax,< 10%
CNC(=O)Oc1cccc2c1OC(C)(C)O2,"uncharacterized protein (Anopheles coluzzii, UniProt A0A6E8VQK1)","enzyme activity, inhibitor",Sf9 cell homogenate,"0.004651 µM, 0.1667 h, with: α-naphthyl acetate substrate",relative to: no inhibitor,remaining activity,98.6%
COC(=O)[C@@]1(O)C[C@H]2O[C@]1(C)n1c3ccccc3c3c4c(c5c6ccccc6n2c5c31)C(=O)NC4,"Mitogen-activated protein kinase 3 (MAPK3, Homo sapiens, UniProt P27361)",ADP-Glo,,"1 µM, with: MBP substrate",,kinase activity,90.6% and 126% and 96.3%
COc1ccc(N2C(=O)N(c3c(C)cccc3Cl)Cc3cnc(Nc4ccc(C5CCN(C)CC5)cc4OC)nc32)nc1,"Serine/threonine-protein kinase D2 (PRKD2, Homo sapiens, UniProt Q9BZL6)",kinase activity,,0.5 µM,,inhibition,30%
O=P(O)(O)OC[C@H]1C[C@](O)(CO)[C@@H](O)[C@H](O)[C@@H]1O,"2-epi-valiolone synthase (Actinosynnema mirum, UniProt C6WFL3)",phosphate release,,100 µM,,apparent Vmax,1.8 ± 0.2 µM/min

# For quick reference, copied from above:
SMILES,target,test,system,setting,scale,measurement,result
CC(=C\C=C\C(C)=C\[C@H](O)[C@@H](O)C[C@H](C)O)/C=C(C)/C=C/C(=O)O[C@H]1CCCC(=O)O[C@@H]([C@@H](C)C/C(C)=C/[C@@H](C)[C@H](O)C[C@@H](C)O)C/C=C(\C)C[C@@H]1C,"Protein transport protein Sec61 subunit alpha isoform 1 (Homo sapiens, UniProt P61619)","Sec61-dependent translocation, inhibitor, measured: CD4 signal peptide-FLuc reporter",HEK293,"concentration not given, 6 h",relative to: mock,FLuc/RLuc ratio,1.97
CC[C@H](C)[C@H](NC(=O)CNC(=O)[C@@H](N)CCCCN)C(=O)N[C@@H](CC(C)C)C(=O)N[C@@H](CCCCN)C(=O)N[C@@H](CCCNC(=N)N)C(=O)N[C@@H](CCC(=O)O)C(=O)N[C@@H](CCCCN)C(=O)N[C@@H](CCCNC(=N)N)C(=O)N[C@@H](CC(C)C)C(=O)N[C@@H](CCCNC(=N)N)C(=O)N[C@@H](CCCNC(=N)N)C(=O)N[C@@H](CCCCN)C(=O)N[C@@H](CC(N)=O)C(=O)N[C@H](C(=O)N[C@@H](Cc1c[nH]cn1)C(=O)N[C@@H](Cc1c[nH]c2ccccc12)C(=O)N1CCC[C@H]1C(=O)N[C@@H](CCC(=O)O)C(=O)N[C@@H](CCC(=O)O)C(=O)NCC(=O)N[C@@H](CCCCN)C(=O)N[C@@H](CC(C)C)C(=O)N[C@@H](CCCNC(=N)N)C(=O)N[C@@H](CCC(=O)O)C(=O)N[C@@H](Cc1ccc(O)cc1)C(=O)N[C@@H](Cc1ccccc1)C(=O)N[C@@H](Cc1ccc(O)cc1)C(=O)N[C@@H](Cc1ccccc1)C(=O)N[C@@H](CCC(=O)O)C(=O)N[C@@H](CC(C)C)C(=O)N[C@@H](CC(=O)O)C(=O)N[C@@H](CCC(=O)O)C(=O)N[C@@H](C)C(=O)N[C@@H](CCC(=O)O)C(=O)N[C@@H](CCCNC(=N)N)C(=O)N[C@H](C(=O)N[C@@H](CC(N)=O)C(=O)N[C@H](C(=O)O)C(C)C)C(C)C)C(C)C,"Serine/threonine-protein phosphatase PP1-alpha catalytic subunit (PPP1CA, Homo sapiens, UniProt P62136)","binding, isothermal titration calorimetry",,"25 °C, PP1α residues 7-330",,entropic term −TΔS,-11 ± 1.8 kcal/mol
O=C(O)c1cccc(C(=O)O)n1,"Metallo-beta-lactamase type 2 (blaNDM-1, Klebsiella pneumoniae, UniProt C7C422)","enzyme activity, inhibitor",,with: nitrocefin,,kon,1330 ± 333 M⁻¹ s⁻¹
